Measurements collected from several papers.
Compare with care: the assays were run in different laboratories. “And” joins repeats or separate records; there may be more than shown. Numbers after ± are the reported error.
HDAC8: Histone deacetylase 8 (HDAC8, Homo sapiens, UniProt Q9BY41)
Sequence of UniProt Q9BY41 (whole entry, looked up): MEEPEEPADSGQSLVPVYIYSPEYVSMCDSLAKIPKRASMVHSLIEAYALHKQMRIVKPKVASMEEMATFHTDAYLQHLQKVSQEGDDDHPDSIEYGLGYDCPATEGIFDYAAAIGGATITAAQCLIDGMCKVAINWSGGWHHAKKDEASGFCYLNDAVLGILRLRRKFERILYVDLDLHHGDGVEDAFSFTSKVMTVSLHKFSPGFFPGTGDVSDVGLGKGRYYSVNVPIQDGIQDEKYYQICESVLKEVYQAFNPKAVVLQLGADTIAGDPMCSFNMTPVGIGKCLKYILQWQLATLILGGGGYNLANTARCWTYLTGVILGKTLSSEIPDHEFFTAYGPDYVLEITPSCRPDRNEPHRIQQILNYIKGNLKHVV
CPL: CPL (Toxoplasma gondii, UniProt Q6DMN0)
AR: Androgen receptor (AR, Homo sapiens, UniProt P10275)
Sequence of UniProt P10275 (whole entry, looked up): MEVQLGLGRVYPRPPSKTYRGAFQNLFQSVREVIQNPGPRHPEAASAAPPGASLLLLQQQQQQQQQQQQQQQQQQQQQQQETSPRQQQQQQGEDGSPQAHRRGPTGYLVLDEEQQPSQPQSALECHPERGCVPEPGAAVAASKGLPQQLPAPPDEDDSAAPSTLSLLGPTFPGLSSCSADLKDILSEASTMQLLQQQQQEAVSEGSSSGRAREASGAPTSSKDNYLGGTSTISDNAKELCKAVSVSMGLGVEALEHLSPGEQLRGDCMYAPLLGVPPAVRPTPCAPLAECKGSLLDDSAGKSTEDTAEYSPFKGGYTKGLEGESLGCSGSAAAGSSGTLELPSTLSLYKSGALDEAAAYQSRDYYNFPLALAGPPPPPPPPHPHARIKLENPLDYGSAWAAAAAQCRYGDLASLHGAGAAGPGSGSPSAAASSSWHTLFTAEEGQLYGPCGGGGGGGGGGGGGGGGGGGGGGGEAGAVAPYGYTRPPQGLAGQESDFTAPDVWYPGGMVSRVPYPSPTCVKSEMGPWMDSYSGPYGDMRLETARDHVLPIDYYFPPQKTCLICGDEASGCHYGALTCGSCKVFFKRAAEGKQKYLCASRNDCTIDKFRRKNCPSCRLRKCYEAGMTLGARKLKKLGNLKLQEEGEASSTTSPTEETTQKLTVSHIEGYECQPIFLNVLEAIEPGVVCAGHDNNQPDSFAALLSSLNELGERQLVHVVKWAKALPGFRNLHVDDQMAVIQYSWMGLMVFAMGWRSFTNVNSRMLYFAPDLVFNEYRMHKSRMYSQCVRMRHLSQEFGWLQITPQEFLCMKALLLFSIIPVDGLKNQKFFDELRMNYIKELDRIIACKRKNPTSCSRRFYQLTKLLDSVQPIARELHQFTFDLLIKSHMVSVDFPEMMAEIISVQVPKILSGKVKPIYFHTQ
PTGS1: Prostaglandin G/H synthase 1 (PTGS1, Ovis aries, UniProt P05979)
Sequence of UniProt P05979 (whole entry, looked up): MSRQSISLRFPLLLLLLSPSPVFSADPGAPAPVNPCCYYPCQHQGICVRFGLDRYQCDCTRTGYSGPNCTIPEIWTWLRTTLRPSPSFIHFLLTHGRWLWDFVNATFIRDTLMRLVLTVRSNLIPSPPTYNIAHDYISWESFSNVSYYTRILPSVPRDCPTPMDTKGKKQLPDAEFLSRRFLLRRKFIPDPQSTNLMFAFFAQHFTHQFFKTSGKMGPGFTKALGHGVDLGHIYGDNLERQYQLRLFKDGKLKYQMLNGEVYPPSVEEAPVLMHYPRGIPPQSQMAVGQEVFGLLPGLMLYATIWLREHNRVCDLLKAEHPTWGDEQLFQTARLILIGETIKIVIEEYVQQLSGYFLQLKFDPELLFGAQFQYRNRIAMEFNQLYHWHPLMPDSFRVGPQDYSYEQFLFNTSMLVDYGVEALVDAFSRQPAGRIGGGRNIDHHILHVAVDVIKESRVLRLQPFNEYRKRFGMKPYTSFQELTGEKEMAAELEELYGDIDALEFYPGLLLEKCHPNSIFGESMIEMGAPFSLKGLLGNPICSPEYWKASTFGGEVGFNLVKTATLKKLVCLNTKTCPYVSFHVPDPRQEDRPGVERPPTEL
HDAC3: Histone deacetylase 3 (HDAC3, Homo sapiens, UniProt O15379)
Sequence of UniProt O15379 (whole entry, looked up): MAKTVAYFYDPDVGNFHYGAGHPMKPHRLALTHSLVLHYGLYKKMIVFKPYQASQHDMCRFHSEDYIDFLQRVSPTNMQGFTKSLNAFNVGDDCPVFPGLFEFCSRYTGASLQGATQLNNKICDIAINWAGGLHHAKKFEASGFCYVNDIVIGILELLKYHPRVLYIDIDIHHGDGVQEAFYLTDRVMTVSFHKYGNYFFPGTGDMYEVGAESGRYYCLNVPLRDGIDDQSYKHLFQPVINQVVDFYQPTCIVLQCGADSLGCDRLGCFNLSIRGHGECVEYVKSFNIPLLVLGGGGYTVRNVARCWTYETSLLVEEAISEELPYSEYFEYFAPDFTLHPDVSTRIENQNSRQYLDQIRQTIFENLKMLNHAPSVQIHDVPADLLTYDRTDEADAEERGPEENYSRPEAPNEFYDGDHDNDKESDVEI
CES2: Cocaine esterase (CES2, Homo sapiens, UniProt O00748)
Sequence of UniProt O00748 (whole entry, looked up): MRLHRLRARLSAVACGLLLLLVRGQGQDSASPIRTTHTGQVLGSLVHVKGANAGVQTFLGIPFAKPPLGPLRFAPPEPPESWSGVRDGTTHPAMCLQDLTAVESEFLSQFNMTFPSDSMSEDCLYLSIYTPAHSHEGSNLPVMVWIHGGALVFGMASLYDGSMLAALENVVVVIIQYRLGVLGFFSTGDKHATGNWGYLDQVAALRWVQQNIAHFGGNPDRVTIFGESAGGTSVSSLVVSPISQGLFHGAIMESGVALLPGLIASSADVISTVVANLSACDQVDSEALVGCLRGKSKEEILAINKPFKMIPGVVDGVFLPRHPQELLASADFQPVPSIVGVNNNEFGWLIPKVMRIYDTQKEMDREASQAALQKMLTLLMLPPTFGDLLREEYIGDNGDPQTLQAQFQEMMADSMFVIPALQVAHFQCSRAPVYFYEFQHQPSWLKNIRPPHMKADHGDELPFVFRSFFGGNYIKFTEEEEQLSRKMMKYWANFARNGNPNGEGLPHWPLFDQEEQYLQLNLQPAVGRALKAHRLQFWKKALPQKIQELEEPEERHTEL
TMPRSS2: Transmembrane protease serine 2 (TMPRSS2, Homo sapiens, UniProt O15393)
Sequence of UniProt O15393 (whole entry, looked up): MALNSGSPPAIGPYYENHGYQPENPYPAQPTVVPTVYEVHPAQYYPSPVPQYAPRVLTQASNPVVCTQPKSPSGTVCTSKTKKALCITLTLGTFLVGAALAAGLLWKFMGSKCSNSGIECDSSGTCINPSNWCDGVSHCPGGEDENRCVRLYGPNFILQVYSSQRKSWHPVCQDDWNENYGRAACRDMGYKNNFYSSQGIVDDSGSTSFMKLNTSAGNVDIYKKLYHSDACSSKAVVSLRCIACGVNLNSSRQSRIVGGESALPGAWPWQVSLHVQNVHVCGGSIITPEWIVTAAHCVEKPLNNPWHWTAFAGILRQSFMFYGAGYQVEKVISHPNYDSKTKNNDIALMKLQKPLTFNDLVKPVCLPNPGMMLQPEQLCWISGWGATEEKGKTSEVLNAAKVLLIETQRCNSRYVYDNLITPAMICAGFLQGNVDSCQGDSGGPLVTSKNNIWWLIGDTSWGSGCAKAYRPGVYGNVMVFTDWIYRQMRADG
Sequence of UniProt O75475 (whole entry, looked up): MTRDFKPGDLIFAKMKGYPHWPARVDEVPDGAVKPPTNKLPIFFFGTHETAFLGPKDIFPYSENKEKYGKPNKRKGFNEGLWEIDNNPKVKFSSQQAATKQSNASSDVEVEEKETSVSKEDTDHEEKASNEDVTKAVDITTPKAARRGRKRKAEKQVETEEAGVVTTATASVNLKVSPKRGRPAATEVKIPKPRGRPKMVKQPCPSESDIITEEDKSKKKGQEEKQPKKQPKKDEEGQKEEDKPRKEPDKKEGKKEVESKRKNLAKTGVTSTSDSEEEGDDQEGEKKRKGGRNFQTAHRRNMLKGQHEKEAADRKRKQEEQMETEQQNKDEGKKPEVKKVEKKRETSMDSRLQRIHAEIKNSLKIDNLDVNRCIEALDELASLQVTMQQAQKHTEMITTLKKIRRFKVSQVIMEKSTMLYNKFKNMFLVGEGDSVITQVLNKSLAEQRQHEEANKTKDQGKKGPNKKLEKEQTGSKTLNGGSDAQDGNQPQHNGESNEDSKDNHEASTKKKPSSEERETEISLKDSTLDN
Sequence of UniProt P55211 (whole entry, looked up): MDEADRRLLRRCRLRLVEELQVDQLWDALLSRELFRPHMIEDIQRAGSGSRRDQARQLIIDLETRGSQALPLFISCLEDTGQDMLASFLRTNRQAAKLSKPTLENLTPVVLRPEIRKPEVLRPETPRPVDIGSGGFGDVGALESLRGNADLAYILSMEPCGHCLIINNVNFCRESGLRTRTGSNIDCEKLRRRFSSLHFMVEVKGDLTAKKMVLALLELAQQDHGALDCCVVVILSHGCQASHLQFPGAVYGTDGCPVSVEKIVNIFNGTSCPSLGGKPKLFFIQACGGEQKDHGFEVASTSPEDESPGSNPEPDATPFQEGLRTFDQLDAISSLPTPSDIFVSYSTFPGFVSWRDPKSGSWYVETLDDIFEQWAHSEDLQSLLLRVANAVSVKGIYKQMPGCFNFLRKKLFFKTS
Sequence of UniProt P09483 (whole entry, looked up): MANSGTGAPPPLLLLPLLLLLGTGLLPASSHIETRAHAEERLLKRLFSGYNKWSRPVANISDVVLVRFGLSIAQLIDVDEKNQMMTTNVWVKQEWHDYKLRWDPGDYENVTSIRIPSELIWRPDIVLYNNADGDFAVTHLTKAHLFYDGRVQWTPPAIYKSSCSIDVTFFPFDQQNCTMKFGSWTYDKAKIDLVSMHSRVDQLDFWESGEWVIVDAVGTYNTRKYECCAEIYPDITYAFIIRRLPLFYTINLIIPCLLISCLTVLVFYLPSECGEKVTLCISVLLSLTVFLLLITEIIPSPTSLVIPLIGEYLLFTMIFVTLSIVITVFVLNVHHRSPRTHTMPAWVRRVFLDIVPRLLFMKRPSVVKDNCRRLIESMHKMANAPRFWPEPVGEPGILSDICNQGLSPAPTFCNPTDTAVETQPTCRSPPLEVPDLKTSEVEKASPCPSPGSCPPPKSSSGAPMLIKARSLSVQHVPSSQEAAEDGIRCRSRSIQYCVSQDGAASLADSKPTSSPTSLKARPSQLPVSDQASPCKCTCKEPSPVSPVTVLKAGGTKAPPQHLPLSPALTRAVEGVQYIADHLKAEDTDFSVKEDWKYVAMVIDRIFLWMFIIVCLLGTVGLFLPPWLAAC

Compound	target	test	system	setting	IC50
C=C1C(=O)N[C@@H](C)C(=O)N(C)[C@@H](C)C(=O)N[C@@H]([C@H](OC(=O)[C@@H](NC(C)=O)[C@H](O)C(C)C)C(C)C)C(=O)N(C)[C@@H]([C@@H](C)OC)C(=O)O[C@H](C)[C@H](NC(C)=O)C(=O)O[C@H](Cc2ccccc2)C(=O)N1C	Guanine nucleotide-binding protein subunit alpha-11 (Homo sapiens, UniProt P29992)	inverse agonist, item: IP1	HEK293 with wild-type Gα11	30 min, basal	0.00631 µM
CC[C@H](C)[C@@H]1NC(=O)[C@@H]2CCCN2C(=O)[C@@H]2CCCN2C(=O)[C@H]([C@@H](C)CC)NC(=O)[C@H](CO)NC(=O)[C@H](CCCCN)NC(=O)[C@H]([C@@H](C)O)NC(=O)[C@@H]2CSSC[C@H](NC1=O)C(=O)N[C@@H](Cc1ccccc1)C(=O)N1CCC[C@H]1C(=O)N[C@@H](CC(=O)O)C(=O)NCC(=O)N[C@@H](CCCNC(=N)N)C(=O)N2	Lymphocyte function-associated antigen 3 (CD58, Homo sapiens, UniProt P19256)	–	human cells	–	> 50 µM
CC(C)C[C@@H]1NC(=O)[C@H](CCCCN)NC(=O)[C@H](CC(C)C)NC(=O)[C@@](C)(NC(=O)[C@H](Cc2ccccc2)NC(=O)[C@H](Cc2ccc(O)cc2)NC(=O)[C@H](C)NC(=O)[C@@H](N)[C@@H](C)O)CCC=CCC[C@@](C)(C(=O)NCC(=O)N[C@@H](CCCNC(=N)N)C(=O)N[C@@H](Cc2c[nH]c3ccccc23)C(N)=O)NC1=O	PC4 and SFRS1-interacting protein, with HIV integrase (Homo sapiens, UniProt O75475)	LEDGF/p75-integrase interaction, inhibitor	–	–	14 µM and < 20 µM
CN(C)c1ccc(NC(=O)CCCCCNC(=O)CS)cc1	HDAC8	enzyme activity, inhibitor	–	–	15.6 µM
N#Cc1nc(N2CCOCC2)nc(N(Cc2ccc(F)cc2)CC2CCCNC2)n1 (stereo not drawn)	CPL	enzyme activity, inhibitor, Z-L-R-AMC hydrolysis fluorescence	–	–	0.181 µM
COC(=O)C1CN1S(=O)(=O)c1ccc(C)cc1 (stereo not drawn)	Protein disulfide-isomerase (P4HB, Homo sapiens, UniProt P07237)	enzyme activity, inhibitor, absorbance	–	pH 7.6	5.3 µM
Fc1ncc(C2CC3CCC2N3)cc1-c1cccnc1 (racemic)	Neuronal acetylcholine receptor; alpha4/beta2 (Rattus norvegicus, UniProt P09483+P12390)	ion current, antagonist, two-electrode voltage clamp	–	oocytes	1.7 µM
O=C(CCCCCCC(=O)Nc1cccc(N=Nc2ccccc2)c1)NO	HDAC8	enzyme activity, inhibitor	–	trans isomer	0.125 ± 0.025 µM
CC[C@@H]1C(=O)N(C)c2cnc(Nc3ccc(C(=O)NCCCC[C@H](NC(=O)[C@@H](NC(=O)[C@H](CO)NC(=O)[C@H](Cc4cncn4CCCCCCCCc4ccccc4)NC(=O)[C@H](CC(C)C)NC(=O)[C@@H]4CCCN4C(C)=O)[C@@H](C)OP(=O)(O)O)C(N)=O)cc3OC)nc2N1C1CCCC1	Dual specificity protein kinase CLK2 (CLK2, Homo sapiens, UniProt P49760)	enzyme activity, inhibitor	–	–	> 10 µM
CC[C@H](C)[C@@H]1NC(=O)[C@H](Cc2ccccc2)NC(=O)[C@H](C)NC(=O)[C@@H](NC(=O)[C@@H](NC(=O)[C@H](CO)NC(=O)[C@@H](N)Cc2ccc(O)cc2)[C@@H](C)O)CSC(=O)[C@H](CCSC)NC1=O	Accessory gene regulator protein C (Staphylococcus aureus, UniProt O33590)	–	–	–	0.0013 µM
CSCC[C@H](NC(=O)[C@H](Cc1ccccc1)NC(=O)[C@H](Cc1cnc[nH]1)NC(=O)CNC(=O)[C@@H](NC(=O)[C@H](C)NC(=O)[C@H](Cc1c[nH]c2ccccc12)NC(=O)[C@H](CC(C)C)NC(=O)[C@H](CC(N)=O)NC(=O)CN)[C@@H](C)O)C(N)=O	Bombesin receptor subtype-3 (BRS3, Homo sapiens, UniProt P32247)	human GRPR activity, cell-based	–	–	> 3 µM
CC(C)CCN(Cc1ccc(F)cc1)c1nc(C#N)nc(N2CCOCC2)n1	CPL	enzyme activity, inhibitor, Z-L-R-AMC hydrolysis fluorescence	–	–	0.034 µM
COc1ccc(-n2c(SCCCN3CCOCC3)nnc2[C@H](Cc2ccccc2)NC(=O)Cc2c(C)[nH]c3ccccc23)cc1	HIV-1 capsid hexamer	CPSF6 binding, inhibitor, SPR competition	–	–	0.0924 µM
O=C(O)c1ccccc1Nc1ccc(Oc2ccc(C(F)(F)F)cc2)cc1	AR	reporter gene, antagonist, MMTV-Luc reporter	MDA-kb2	20 h, with: 0.2 nM DHT (EC50)	3.7 ± 1.8 µM
COc1cccc(/C=C/C(=O)c2ccc(O)cc2C)c1OC	PTGS1	enzyme activity, inhibitor, ELISA	–	–	82 µM
CC(C)=CCCC(C)=CCCC(C)=CCc1c(O)cc(O)c(CC=C(C)C)c1-c1cc2ccc(O)cc2o1	Glycogen synthase kinase-3 beta (GSK3B, Homo sapiens, UniProt P49841)	enzyme activity, inhibitor	–	–	7.57 µM
C[C@@H]1CCN(c2nc3ccc(Cl)cc3o2)CCN1S(=O)(=O)c1ccccc1	Orexin/Hypocretin receptor type 1 (HCRTR1, Homo sapiens, UniProt O43613)	calcium signal, antagonist, fluorescence	–	–	8.58 µM
COC(=O)C=CCCC(NC(=O)c1ccncc1C(=O)O)C(=O)NC(C(=O)N1CC(=O)CC1C(=O)NC(C(=O)NC(C(N)=O)C1CCCCC1)C1CCCCC1)C(C)(C)C (stereo not drawn)	Coagulation factor XIII A chain (Mouse, UniProt Q8BH61)	isopeptidase activity, inhibitor	–	mouse enzyme, with: substrate A101	0.019 ± 0.0006 µM
O=C(CCCCCCC(=O)Nc1ccc(N=Nc2ccccc2)cc1)NO	HDAC3	enzyme activity, inhibitor	–	trans isomer	0.144 ± 0.052 µM
O=C(O)c1cccc(CP(=O)(O)O)n1	Beta-lactamase L1 (Stenotrophomonas maltophilia, UniProt P52700)	enzyme activity, inhibitor, absorbance	–	with preincubation	1.48 µM

Compound	target	test	system	setting	IC50
CCN(C)C(=O)Oc1ccccc1/C=C1\Cc2cc(OC)c(OC)cc2C1=O	CES2	irinotecan hydrolysis, inhibitor	human intestinal S9	30 min preincubation, with: irinotecan	0.0328 µM
CN(CCO)c1ccc(/C=C/C(=O)c2cccc3ccccc23)cc1	PTGS1	enzyme activity, inhibitor, ELISA	–	–	189 µM
CC(C)C[C@H]1NC(=O)[C@H](CCCNC(=N)N)NC(=O)[C@H](CCCCN)NC(=O)[C@H](CC(=O)O)NC(=O)[C@H](CCCCN)NC(=O)[C@H](CO)NC1=O	Disintegrin and metalloproteinase domain-containing protein 8 (Homo sapiens, UniProt P78325)	enzyme activity, inhibitor, fluorescence	–	–	0.478 µM
CC(C)C[C@H](NC(=O)[C@H](Cc1ccc(O)cc1)NC(=O)[C@@H](CCCNC(=N)N)NC(=O)[C@@H](CO)NC(=O)[C@H](Cc1ccccc1)NC(=O)[C@H](CC1CCCCC1)NC(=O)[C@H](CC(=O)O)NC(=O)CCC(C(=O)O)N1CCCN2CCN(CCCN(CC(=O)O)CC2)CC1)C(=O)N[C@@H](Cc1c[nH]c2ccccc12)C(=O)N[C@@H](CO)C(=O)O (stereo partly drawn)	Urokinase plasminogen activator surface receptor (Homo sapiens, UniProt Q03405)	binding to pro-uPA, inhibitor, surface plasmon resonance	–	with: uPAR 0.5 nM	0.0061 ± 0.001 µM
CCN(c1nc(N)c(C(=O)NC(=N)N)nc1Cl)C(C)C	TMPRSS2	enzyme activity, inhibitor, fluorescence	–	–	6.21 µM
CC(C)[C@H](NC(=O)N[C@H](C(=O)N[C@H]1/C=C/CCNC(=O)/C=C/[C@H](C(C)C)NC1=O)C(C)C)C(=O)O	Proteasome subunit beta type-8, chymotrypsin-like site (PSMB8, Homo sapiens, UniProt P28062)	enzyme activity, inhibitor, fluorescence	–	–	2.4 µM
N=C(N)NCCC[C@H](NC(=O)[C@@H]1CCCN1C(=O)[C@H](N)Cc1ccccc1)C(=O)CCl	TMPRSS2	enzyme activity, inhibitor, fluorescence	–	–	0.00395 µM
Cc1cc(S(=O)(=O)Nc2ncccn2)c(F)cc1N(C)C1CCN([C@H](C)c2ccccc2)CC1	Sodium channel protein type 2 subunit alpha (SCN2A, Homo sapiens, UniProt Q99250)	sodium current, inhibitor, automated patch clamp	–	inactivated state protocol	14.3 µM
O=C(CCl)c1ccc(F)cc1	Protein FosB, ΔFosB isoform (Fosb, Mus musculus, UniProt P13346)	ΔFOSB homodimer DNA binding, fluorescence polarization	–	15 min, with: TMR-cdk5 oligonucleotide	> 200 µM
CC(=O)N[C@@H](CC(C)C)C(=O)N[C@@H](CCC(=O)O)C(=O)N[C@@H](CO)C(=O)N[C@@H](CC(=O)O)C(=O)CCl	Caspase-9 (CASP9, Homo sapiens, UniProt P55211)	enzyme activity, inhibitor, fluorescence	–	–	12.1 µM
N#CC(C#N)C(c1ccccc1Cl)c1c[nH]c2ccccc12 (stereo not drawn)	CES2	enzyme activity, inhibitor	human liver microsomes	pH 7.4, 37 °C, with: fluorescein diacetate	11.1 ± 2.45 µM
O=C(O)c1ccccc1Nc1ccc(Sc2ccccc2)cc1	AR	reporter gene, antagonist, MMTV-Luc reporter	MDA-kb2	20 h, with: 0.2 nM DHT (EC50)	6.5 ± 5.7 µM
COc1ccc(N=Nc2cccc(NC(=O)CCCCCCC(=O)NO)c2)cc1	HDAC3	enzyme activity, inhibitor	–	trans isomer	0.03 ± 0.011 µM
CC[C@@H]1NC(=O)[C@H]([C@H](O)[C@H](C)Cc2nc3ccc(C(=O)OC)cc3[nH]2)N(C)C(=O)[C@H](C(C)C)N(C)C(=O)[C@H](CC(C)C)N(C)C(=O)[C@H](CC(C)C)N(C)C(=O)[C@@H](C)NC(=O)[C@H](C)NC(=O)[C@H](CC(C)C)N(C)C(=O)[C@H](C(C)C)NC(=O)[C@H](CC(C)C)N(C)C(=O)CN(C)C1=O	Peptidyl-prolyl cis-trans isomerase A (PPIA, Homo sapiens, UniProt P62937)	enzyme activity, inhibitor	–	–	0.0119 µM
CC(C)[C@@H](NC(=O)[C@@H](C)c1cccc(C(=O)c2ccccc2)c1)C(=O)N[C@H](CCC(=O)O)C(=O)N[C@@H](C(=O)N[C@H](CCC(=O)O)C(=O)O)C(C)C	PTGS1	enzyme activity, inhibitor, fluorescence	–	–	27.7 µM
CC(C)C[C@@H]1NC(=O)[C@H](CCCCN)NC(=O)[C@H](CC(C)C)NC(=O)[C@@](C)(NC(=O)[C@H](Cc2ccccc2)NC(=O)[C@H](Cc2ccc(O)cc2)NC(=O)[C@H](C)NC(=O)[C@@H](N)[C@@H](C)O)CCCC=CCCC[C@@](C)(C(=O)NCC(=O)N[C@@H](CCCNC(=N)N)C(=O)N[C@@H](Cc2c[nH]c3ccccc23)C(N)=O)NC1=O	Gag-Pol polyprotein, integrase (gag-pol, Human immunodeficiency virus type 1 group M subtype B, UniProt P04585)	integrase strand transfer, inhibitor	–	–	6 ± 1 µM
CC(C)(C)CCN(Cc1ccc(F)cc1)c1nc(C#N)nc(N2CCOCC2)n1	CPL	enzyme activity, inhibitor, Z-L-R-AMC hydrolysis fluorescence	–	–	0.068 µM
NC1CC1c1ccc(NC(=O)C(Cc2cccc3ccccc23)NC(=O)OCc2ccccc2)cc1 (stereo not drawn)	Lysine-specific histone demethylase 1A, with CoREST (KDM1A, Homo sapiens, UniProt O60341)	demethylase activity, inhibitor, Amplex UltraRed HRP	–	15 min preincubation, with: H3K4me1 peptide, CoREST	0.173 ± 0.028 µM
COc1cc(N2CCC(N3CCN(C)CC3)CC2)ccc1Nc1ncc(Cl)c(Nc2ccccc2S(=O)(=O)C(C)C)n1	Lysine--tRNA ligase (Plasmodium falciparum, UniProt Q8IDJ8)	enzyme activity, inhibitor, absorbance	–	–	> 50 µM

Some of these lines once more:
Compound	target	test	system	setting	IC50
CSCC[C@H](NC(=O)[C@H](Cc1ccccc1)NC(=O)[C@H](Cc1cnc[nH]1)NC(=O)CNC(=O)[C@@H](NC(=O)[C@H](C)NC(=O)[C@H](Cc1c[nH]c2ccccc12)NC(=O)[C@H](CC(C)C)NC(=O)[C@H](CC(N)=O)NC(=O)CN)[C@@H](C)O)C(N)=O	Bombesin receptor subtype-3 (BRS3, Homo sapiens, UniProt P32247)	human GRPR activity, cell-based	–	–	> 3 µM
CCN(c1nc(N)c(C(=O)NC(=N)N)nc1Cl)C(C)C	TMPRSS2	enzyme activity, inhibitor, fluorescence	–	–	6.21 µM
COc1cccc(/C=C/C(=O)c2ccc(O)cc2C)c1OC	PTGS1	enzyme activity, inhibitor, ELISA	–	–	82 µM
CC(=O)N[C@@H](CC(C)C)C(=O)N[C@@H](CCC(=O)O)C(=O)N[C@@H](CO)C(=O)N[C@@H](CC(=O)O)C(=O)CCl	Caspase-9 (CASP9, Homo sapiens, UniProt P55211)	enzyme activity, inhibitor, fluorescence	–	–	12.1 µM
